Measured values collected from several papers.
Parts stem from different laboratories: compare values within a part only. Substitutions count along the parent as printed.

Series 1
Target: PABPC1L2, full length, GST fusion (mouse, UniProt A0ABA7IW68)
Method: RNAcompete
Molecule type: RNA
Matrix: in vitro
Tested at: 20 nM
Notes: 7-mer, probes averaged, single round
Baseline: mean of 7-mers
Direction: higher = stronger binding
Residues (chain): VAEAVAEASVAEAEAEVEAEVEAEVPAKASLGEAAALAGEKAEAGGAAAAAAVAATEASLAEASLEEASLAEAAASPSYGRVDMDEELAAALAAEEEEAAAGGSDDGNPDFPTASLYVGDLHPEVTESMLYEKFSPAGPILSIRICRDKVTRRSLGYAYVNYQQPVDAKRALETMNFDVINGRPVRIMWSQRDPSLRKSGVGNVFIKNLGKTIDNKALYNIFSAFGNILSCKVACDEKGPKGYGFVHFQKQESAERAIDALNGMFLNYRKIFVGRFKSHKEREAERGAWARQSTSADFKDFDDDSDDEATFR
Oligonucleotide | 7-mer Z-score
UAAAUCG | 0.707
GCCAAUA | 0.0207
UCAAAGA | 0.162
AAAGGAG | 0.936
UACCUAC | -0.171
CUUGCGC | -0.291
UAGUAAG | -0.0772
GUUUAAU | -0.289

Series 2
Target: CCNB2, cyclin fold, Cln2 fusion (human)
Method: yeast growth competition, sequencing
Matrix: yeast
Notes: strong parent motif
Baseline: not given
Direction: higher = stronger binding
Starting sequence: BRCA2 docking peptide (human); PSIKRNLLNEFDR; partner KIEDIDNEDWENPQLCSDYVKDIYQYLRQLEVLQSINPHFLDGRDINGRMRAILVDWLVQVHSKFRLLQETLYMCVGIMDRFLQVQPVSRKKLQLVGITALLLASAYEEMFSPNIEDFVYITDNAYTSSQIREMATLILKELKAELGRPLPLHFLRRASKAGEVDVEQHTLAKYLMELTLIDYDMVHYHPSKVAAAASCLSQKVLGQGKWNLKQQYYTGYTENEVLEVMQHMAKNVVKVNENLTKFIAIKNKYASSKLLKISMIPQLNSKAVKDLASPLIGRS
Change | normalised enrichment score
I3N | -0.121
N9R | 3.51
L7F | 0.264
L7T | 0.305
D12L | 1.94
N9F | 3.12
N9V | 3.75
L8T | 1.64

Series 3
Target: TAR DNA-binding protein 43, full length, His tag (TARDBP, Homo sapiens, UniProt Q13148, residues 1-414)
Method: RNA Bind-n-Seq
Molecule type: RNA
Matrix: in vitro
Tested at: 20 nM
Notes: 6-mer, flanks averaged, single round
With: 150 mM LiCl
Baseline: input library
Direction: higher = stronger binding
Oligonucleotide | 6-mer enrichment (R)
CUUCCU | 0.918
CGAACU | 0.855
GUCGAC | 0.927
GCCGGU | 0.973
ACUGUG | 1.06
CGGGGC | 1.1
GCCCAU | 0.994
UCCUAC | 0.846

Single results of other studies
Starting sequence: PafA, mature enzyme, eGFP fusion (Elizabethkingia meningoseptica, UniProt Q9KJX5); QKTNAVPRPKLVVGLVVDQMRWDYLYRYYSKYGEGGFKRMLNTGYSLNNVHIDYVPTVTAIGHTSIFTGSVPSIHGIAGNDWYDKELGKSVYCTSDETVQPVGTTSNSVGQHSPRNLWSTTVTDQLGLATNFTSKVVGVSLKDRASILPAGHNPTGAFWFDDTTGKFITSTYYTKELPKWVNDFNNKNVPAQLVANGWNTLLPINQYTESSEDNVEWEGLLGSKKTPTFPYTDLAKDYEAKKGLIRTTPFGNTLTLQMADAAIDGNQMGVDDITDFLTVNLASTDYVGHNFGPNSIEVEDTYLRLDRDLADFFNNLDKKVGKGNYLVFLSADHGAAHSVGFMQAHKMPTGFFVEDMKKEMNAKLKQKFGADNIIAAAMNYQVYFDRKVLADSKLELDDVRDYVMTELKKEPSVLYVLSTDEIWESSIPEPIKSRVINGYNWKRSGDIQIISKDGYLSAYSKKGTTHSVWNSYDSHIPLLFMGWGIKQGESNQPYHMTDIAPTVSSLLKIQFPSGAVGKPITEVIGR
Change | target | assay | test system | conditions | how to read | endpoint | value
E522V | inorganic phosphate, free oxyanion | microfluidic competitive inhibition | in vitro, cell-free expressed | not given, derived from inhibition constants, unchanged parent 615000 nM | lower = stronger binding | phosphate dissociation constant | 530 µM

A few entries again (series 2):
Change | normalised enrichment score
L7T | 0.305
D12L | 1.94
